Measurements pooled from the literature.
Each numbered part is a random draw from the data of one study; scales do not carry over between parts.

Series 1
Target: Histone acetyltransferase KAT6A, winged helix 2, GST fusion (KAT6A, Homo sapiens, UniProt Q92794, residues 85-181)
Method: protein binding microarray
Form: double-stranded DNA, one strand shown
Matrix: in vitro
Concentration: not given
Notes: 8-mer, flanks averaged, mean of 2 arrays, mostly near background
Baseline: not given
Direction: higher = stronger binding
Construct (chain): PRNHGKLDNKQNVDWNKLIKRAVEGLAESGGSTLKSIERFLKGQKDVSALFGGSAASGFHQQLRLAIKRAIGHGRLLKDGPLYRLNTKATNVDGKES
Oligonucleotide	E-score
GTATCGAC	0.102
CGGACTAA	0.0161
GGTTTGCA	0.0692
ATCCACAC	-0.0204
CCATATGA	-0.083
CTATGCAC	-0.058
ACCCATGC	0.0244
AAAGAAGC	0.0484
CTCTACAA	-0.0454
CGGGAGCC	0.0641
AGTAGCAT	0.173
GTCGCACA	0.0595
CCCTTTTA	-0.104
AAAAACGT	-0.115
AGAACGAA	0.105
CTGCCGCC	0.263
CCGGGTTA	-0.0291
ACTCAGTA	-0.0419
ACAACCTC	-0.233
TCATCGCA	0.118
AATGCGGT	-0.000985
ACCTCACT	-0.00714
GCCTTCGC	0.214
AAGACTAT	-0.166
CAGCGGGG	0.257

Series 2
Target: RING finger protein unkempt homolog, zinc fingers 1-6, GST-SBP tag (UNK, Homo sapiens, UniProt Q9C0B0, residues 30-357)
Sequence of UniProt Q9C0B0 (30-357, looked up): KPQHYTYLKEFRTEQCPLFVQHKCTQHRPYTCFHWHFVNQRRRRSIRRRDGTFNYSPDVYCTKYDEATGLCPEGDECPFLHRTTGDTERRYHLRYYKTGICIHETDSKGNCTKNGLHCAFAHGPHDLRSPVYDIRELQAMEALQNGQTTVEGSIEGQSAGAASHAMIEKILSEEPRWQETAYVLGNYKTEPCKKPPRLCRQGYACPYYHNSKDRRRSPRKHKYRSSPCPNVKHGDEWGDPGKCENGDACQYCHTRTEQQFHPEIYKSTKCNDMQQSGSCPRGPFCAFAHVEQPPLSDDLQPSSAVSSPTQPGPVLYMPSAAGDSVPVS
Method: RNA Bind-n-Seq
Form: RNA
Matrix: in vitro
Concentration: not given
Notes: RNA with constant flanks, ends assumed
Baseline: input RNA pool
Direction: higher = stronger binding
Constant ends, left off below: GGGAGUUCUACAGUCCGACGAUC … CAACAGAGGAUUGAGCAUCA
Oligonucleotide	bound/input enrichment [ratio]
GAUGUGGCAGCAAGAAACUCAAAUGUGCAUUUGUAACUGAAUUGAACACUUGUCAUGCUGCCGAUGCCAGCCCAUCAAUAGUAGAGCUUAUGAGACUCAUUUAAACUGUCUUUGGUUUAA	0.111
AGAAAAUAAAUGAUUUUUAAGUUAUGUCUAUUAAUCUGACUGUAGAUAUAUAUAUUUACCUCCUCCGUAAUGCAAGAAGUGUUUGUGGGAAGCAGAGAAGCAAGCAACUGUAUUUCUUGU	0.303
AUUCCGUUCAUUGAGACCUCAGCAAAGACAAGACAGGGUGUUGACGAUGCCUUCUAUACAUCCGUCCGAGAAAUUCGAAAACAUAAAGAAAAGAUGAGCAAAGAUGGGAAGAAGAAGAAG	0.289
UUGGAUGGGGCUUCUUCUCUUUAGGUUUGUGUUUGCCCUCCCGCCUGCUUCUGGUUUGUAACCCGCACAGUCCCGCCACUCAGCACACUCAGUAUUACCGUGGAGCUGUGGGGUUCUUGC	1.34
CUGAAAGUUCUGGCCACUGCAUUUGACACGACAUUGGGAGGUAGAAAAUUUGAUGAAGUGUCCGUAAAUCACUUCUGUGAAGAAUUUGGGAAGAAAUACAAGCUAGACAUUAAGUCCAAA	0.41
AAAUUCUACAAACAAGUUAUUGAUAAAGGCCAGACAAUUCCAGAGGACAUCUUAGGGAAAACCGCAGUUUCUAUUGUAAAAGCAUUAGAACAUUUACAUAGUAAGCUGUCUGUCAUUCAC	0.596
AGGGUUGAUGUUCUGAAGAACCACUUGGUGAAAGAAGGUCGAGUAGAUGAAGAAAUUGCGCUCCGAAUUAUCAAUGAGGGUGCUGCCAUCCUUCGGAGAGAGAAAACCAUGAUAGAAGUA	1.38
GAGGGUUGUGAUGUUUGGGGCUGGGAAUGUUUUUGGUAGAAUAAUGGUACAGCUUUUGGCCCGUUUCCUUGUCAAUUGCCAGUGCUGGGAGAAAGAAAUCCCAUGGAAACACAUACCAGU	0.77
GAGUUCCGUUCUGGAAAGGCACCCAUCCUUAUUGCUACAGAUGUAGCCUCCCGUGGGCCCGAUGUGGAAGAUGUCAAGUUUGUGAUCAACUAUGACUAUCCAAACAGCUCAGAGGAUUAU	0.118
UGGUGUUGGCGGUCUGGCUCAGCUGGGCAGGGGGUAACUUUACUGAUUUGGGGGUGGUUUUCCGUUUAAUUUUUCUUUUCUAGCUUCCCAUCGACGGUCAGUGCGCACGUUGUAAUCAGC	0.913
GAUCUAAUCCAGGAUGUUGAAUGGGAUUAUUGCCAUCUUACACCAUAUUUUUGUAAAAUGCCGCUUAAUCAUAAUCUCACACUGAAGAUUUUGCAUCACUUUUGCUAUUAUCAUUCUUUU	0.109

Series 3
Target: RNA binding protein fox-1 homolog 2, RRM domain, GST-SBP tag (RBFOX2, Homo sapiens, UniProt O43251-10, residues 100-194)
Method: RNA Bind-n-Seq
Form: RNA
Matrix: in vitro
Concentration: 365 nM
Notes: natural RNA segment, single round, ends assumed
Baseline: no-protein control
Direction: higher = stronger binding
Constant ends, left off below: GGGAGUUCUACAGUCCGACGAUC … UGGAAUUCUCGGGUGCCAA
Residues (chain): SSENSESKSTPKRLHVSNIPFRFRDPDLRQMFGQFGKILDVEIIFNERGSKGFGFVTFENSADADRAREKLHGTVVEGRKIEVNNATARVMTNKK
Oligonucleotide	RBNS enrichment (R)
UCUUGUGCUACAGGUGGGGCGGAGCCAGCCCCUCACCUUCCUGGUUCCCUGAGGGUCCUCAGGGUGGAGGACAGGUUUGGCCCAGAAAGACUAGCCAGAGGCCUGAUGGU	0.364
UCAACCCCACCCUGUUUGGAUUUUUAAUUAAAAUCUAGUAGUUCUCUUGGUAUUAAAACACUUCUGUCCUGUGAGGUUUUCCCAAUGGUGUUUUUCUUGUAAAUGUGUUG	0.984
UAAACUAGAUCAUCUUAGACUUGUUUAUACCUUCCAGAUUUGAUUGUUUUACUCCCAAUGACUGCACUAUAUGUAUGCAUAAGACCACUUUUGAGCGCUGUGUUCCCCCU	1.2
UGGCUAAAGCCAGGAAGUAAGGGACACGAACUCAUUAGACUAUAACUUGAACUGAGUUGCAUCUCAUUUUCUUCUGUAAAAACAAUUACAGUAGCACAUUAAUUUAAAUC	0.904
AGCAGAGUUUGCAGCGCUGAUGUGUGAGCUGGCAGAGCAGAAUCACUCUUCAAGCGCUUGCUCUUACAGGCAGACAUCGUUUUCUCUCUAAAUUCAGUAGCAGUUUCAUC	0.725
CACAACCUGAAUUCACCACAGCUGGAAUAGCUGUGGAAAACAAAAUAAAACAACAAAAUUAAUAAUGAAAUGGAGGGGAAUUCUAGAAUUAUAUGCUAAAUGCAUAUUUU	1.18
GCCUGAGGACACUCCUGUCGUUGCUGCAGAAGCUGCUGCCCCUGUUCCAUCUGCUGUACUAACCAGGAGCCCUCCCAUGGAGAUGCAGCCCCCUGUCUCUCCUCAGCAGU	0.371
GAAAGCAGUAUGGAUUCUUUAAAUGCCUCUCACUCUUACAAGAUAGUAGGCUUUGAGAUAAUAAACUUACCCGUGUCAAUUAACAUUUAAACUGGCAUAUAGAAAAAAAG	0.336
AUUUUCACAUCCUUCCAUGUAUUUAUCUUGAAGAGAUAAGCACAGAAGAGAAGGUGCUCACUAACAGAGGUACAUUACUGCAAUGUUCUCUUAACAGUUAAACAAGCUGU	0.273
CCAAAGCCCCUUCCAGGCCUGAAUUCCACAAGUACGAUUUACUGUAGUGUCUUAUCACUCUUUCAUGUCACAAUAGCGUGGAGCAUUAGAGAAAAGCCUAGACUUUUAGU	0.502
UCGUGGAGUCAUUGUGUUCAGCUCUGAGAAGAACAAAGAUUCAUAGUUCUGUACAUGUGGCUGGAUUUAAAUAUCCUGUUUUUGAUACUAAUUUUGAAAGUCAUGUAACU	0.464
UUAAAAAGAUAAACGGAUUUGAGCCUCCCUGAUUUCAAUCAAGAGCCCUGUGUGUGGAAUUCCAGAUUUUUCUUUUCCUUUAAUAUCACUUUAUGGGUUCUAGAUGAUGU	0.276

Series 4
Target: Prothrombin, mature alpha-thrombin (F2, Homo sapiens, UniProt P00734)
Method: aptamer microarray, sandwich
Form: DNA with 2'F-ANA
Matrix: in vitro
Concentration: 200 nM
Notes: whole 15-mer aptamer, many near background
Together with: Cy3 exosite-II aptamer, 400 nM
Direction: higher = stronger binding
Oligonucleotide: GGTTGGTGTGGTTGG
Modification	mean fluorescence intensity
2'F-ANA at 2 5 7 9 12 13 14 15	68.6 a.u.
2'F-ANA at 1 3 4 6 7 8	276 a.u.
2'F-ANA at 2 3 4 5 7 11 12 15	130 a.u.
2'F-ANA at 3 4 6 9 11 12 14	250 a.u.
2'F-ANA at 1 5 9 12 15	129 a.u.
2'F-ANA at 1 2 5 6 7 8 10 11 12 14	56.4 a.u.
2'F-ANA at 1 2 3 4 5 7 8 9 14 15	52.7 a.u.
2'F-ANA at 3 5 7 9 10 13 14	69.7 a.u.
2'F-ANA at 1 8 11	193 a.u.
2'F-ANA at 2 4 5 9 13 14 15	43.9 a.u.
2'F-ANA at 1 6 9 11 14	50.1 a.u.
2'F-ANA at 1 4 10 11 13	47.6 a.u.
2'F-ANA at 2 3 5 7 9 12	238 a.u.
2'F-ANA at 1 2 4 7 9 10 12 14 15	55.4 a.u.
2'F-ANA at 4 6 9 11 12 14	92 a.u.
2'F-ANA at 2 3 6 7 8 10 15	344 a.u.
2'F-ANA at 3 4 5 7 8 9 12	262 a.u.
2'F-ANA at 1 3 4 6 8 9 11 12 13 14	142 a.u.
2'F-ANA at 3 4 6 7 9 10 11 12 13 15	200 a.u.
2'F-ANA at 1 3 9 11 12 14	106 a.u.
2'F-ANA at 5 6 11 12 13 14 15	47.4 a.u.
2'F-ANA at 2 3 8 10 11 15	295 a.u.
2'F-ANA at 3 4 5 7 10 12 13 14 15	51.7 a.u.
2'F-ANA at 1 3 5 9 10 11 13 14	43.8 a.u.
2'F-ANA at 3 8 9 11 12 13	1170 a.u.

Excerpt of the above (series 4):
Modification	mean fluorescence intensity
2'F-ANA at 1 3 9 11 12 14	106 a.u.
2'F-ANA at 1 6 9 11 14	50.1 a.u.
2'F-ANA at 2 3 6 7 8 10 15	344 a.u.
2'F-ANA at 2 5 7 9 12 13 14 15	68.6 a.u.
2'F-ANA at 3 4 5 7 8 9 12	262 a.u.
2'F-ANA at 2 4 5 9 13 14 15	43.9 a.u.
